# Assay results collected from several papers.
# Each numbered part is a random draw from the data of one study; scales do not carry over between parts. Substitutions count along the parent as printed.

# Series 1
# Target: CCNB1, cyclin fold, Cln2 fusion (human)
# Method: yeast growth competition, sequencing
# Medium: yeast
# Notes: strong parent motif
# Relative to: not given
# Reading: higher = stronger binding
# Parent: MASTL docking peptide (human); PMIAKNLMCELDE; partner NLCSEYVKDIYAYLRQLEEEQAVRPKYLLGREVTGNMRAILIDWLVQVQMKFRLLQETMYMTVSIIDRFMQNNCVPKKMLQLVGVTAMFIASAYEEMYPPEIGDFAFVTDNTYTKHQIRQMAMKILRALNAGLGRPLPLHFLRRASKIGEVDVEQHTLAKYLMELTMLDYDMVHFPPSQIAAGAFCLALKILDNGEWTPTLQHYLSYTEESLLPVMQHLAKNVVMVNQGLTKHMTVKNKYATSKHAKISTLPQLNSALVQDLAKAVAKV
Variant,normalised enrichment score
I3R,0.204
L11K,0.156
I3L,0.981
K5Y,0.549
A4H,0.841
K5D,-0.0993
A4K,1.63
M2C,2.48
D12I,0.713
M2V,2.2

# Series 2
# Target: Ras GTPase-activating protein-binding protein 1, full length (G3BP1, Homo sapiens, UniProt Q13283)
# Chain of UniProt Q13283 (whole entry, looked up): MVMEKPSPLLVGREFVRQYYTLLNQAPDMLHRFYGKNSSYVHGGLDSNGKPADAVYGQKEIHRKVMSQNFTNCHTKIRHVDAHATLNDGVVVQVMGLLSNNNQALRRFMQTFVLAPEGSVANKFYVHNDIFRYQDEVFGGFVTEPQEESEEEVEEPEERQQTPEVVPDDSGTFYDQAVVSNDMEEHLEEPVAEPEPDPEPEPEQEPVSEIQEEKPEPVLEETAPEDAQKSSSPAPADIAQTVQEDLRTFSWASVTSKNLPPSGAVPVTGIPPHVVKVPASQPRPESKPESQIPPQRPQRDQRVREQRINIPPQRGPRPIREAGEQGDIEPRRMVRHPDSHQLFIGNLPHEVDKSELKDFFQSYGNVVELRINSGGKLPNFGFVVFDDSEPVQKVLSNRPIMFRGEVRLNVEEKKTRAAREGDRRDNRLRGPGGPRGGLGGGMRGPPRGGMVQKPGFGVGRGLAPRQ
# Method: RNA Bind-n-Seq
# Molecule type: RNA
# Medium: in vitro
# Tested at: 200 nM
# Notes: whole 134-nt RNA, ends assumed
# Added: 150 mM LiCl
# Relative to: input library
# Reading: higher = stronger binding
# Each molecule: 7-deaza-guanosine replaces G
# Shared flanks, not repeated: GGGAGUUCUACAGUCCGACGAUC … UGGAAUUCUCGGGUGUCAAGG
Sequence,log2 enrichment
AGUCCUGUGCUACACAUCGUAUGUACCGAAUCGGCCCCCGGGGCCCCCGGCCCCCGGGAAAGUAUUAUGUUACGCCGUUCGGAUCUGCAC,-1.18
CUCAAGUCCUGUGCUACACAUCGUAUGUACCGAAUCGGCCGGGGCCGGGCCGGAAAGUAUUAUGUUACGCCGUUCGGAUCUGCACUUCCA,-0.0143
UCCUGUGCUACACAUCGUAUGUACCGAAUCAAAGUGUGUGUGUGUGUGUGUGUGUGAAAAAAGUAUUAUGUUACGCCGUUCGGAUCUGCA,-0.61
UGGGAGGUGGAUUUUGUUUAUUUUUUUCGCUCAUUUCCAGGGGUGGGAAUUUUUUUUUAAUAUGUGUCAUGAAUAAAGUUGUUUUUGAAA,0.102
UGGGAGGUGGAUUUUGUUUAUUUUUUUAGCUCAUUUCCAGGGGUGGGAAUUUUUUUUUAAUAUGUGUCAUGAAUAAAGUUGUAUUUGAAA,-0.101
UGGCCCUGGUGGCAUGCGGGGAGGAAGAGGUGGCCUCAUGGAUCGGGGUGGUCCCGGUGGAAUGUUCAGAGGUGGCCGUGGUGGAGACAG,0.156
CAAGUCCUGUGCUACACAUCGUAUGUACCGAAUCGGGUUUGGUUUGGGUUUGGGGAAAGUAUUAUGUUACGCCGUUCGGAUCUGCACUUC,-0.584
UGGGAGGUGGAUUUUGUUUAUUUUUUUAGCUCAUUUUCAGGGGUGGGAAUUUUUUUUUAAUAUGUGUCAUGAAUAAAGUUGUUUUUGAAA,0.486
GCAGGAAGUAAAAACAAAUGGAAAUGCUUCGGAUAGGGGCAGGGGUGGGGGUUGCUAAGGAAAGGGUGGGAUGGGAGUGGGUAAAGAGUU,-0.0934
CCUGUGCUACACAUCGUAUGUACCGAAUCGGCCCCCCCGGGGCCCCCCCGGCCCCCCCGGGAAAGUAUUAUGUUACGCCGUUCGGAUCUG,-0.859
CACAGACAACACGCACCCACACAGACACAGAGGGAAGGGGUUGGGAUGGGGACAGGGUGCACAGCAGGGUGGGGUAGGACCCCAGCCCCU,0.492

# Series 3
# Target: PABPC1L2, full length, GST fusion (mouse, UniProt A0ABA7IW68)
# Method: RNAcompete
# Molecule type: RNA
# Medium: in vitro
# Tested at: 20 nM
# Notes: 7-mer, probes averaged, single round
# Relative to: mean of 7-mers
# Reading: higher = stronger binding
# Residues (chain): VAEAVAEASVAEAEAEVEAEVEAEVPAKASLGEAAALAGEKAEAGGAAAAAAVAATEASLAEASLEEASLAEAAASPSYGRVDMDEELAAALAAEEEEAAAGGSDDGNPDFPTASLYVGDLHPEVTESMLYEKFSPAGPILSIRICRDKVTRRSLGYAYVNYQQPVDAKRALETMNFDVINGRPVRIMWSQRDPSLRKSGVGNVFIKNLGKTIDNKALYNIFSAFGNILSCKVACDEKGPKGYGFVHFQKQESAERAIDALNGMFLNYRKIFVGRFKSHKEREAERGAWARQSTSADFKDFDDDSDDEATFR
Sequence,7-mer Z-score
UUCUGAU,-0.432
GUACGAC,-0.191
CGUAGCC,-0.24
AGCCGGG,0.144
GUAGGGA,0.207
UCCACCC,-0.269
GUAAGGG,0.204
GUCACUC,-0.278
UUAUUGA,-0.0573
GACUCUC,-0.32
GACAUAG,-0.0428
CGGCCAC,-0.108
ACCAACC,-0.0627
CAGAGUA,0.0207
AGGCAGG,0.283
UGUUAAG,-0.295
UCGGAUG,-0.148
CAAGACC,0.149
UAAUCUU,-0.266
AACGUCG,-0.0264
GGAGUAG,0.158
CAAAAUG,1.39
CUAUACA,-0.0355

# Series 4
# Target: RING finger protein unkempt homolog, zinc fingers 1-6, GST-SBP tag (UNK, Homo sapiens, UniProt Q9C0B0, residues 30-357)
# Method: RNA Bind-n-Seq
# Molecule type: RNA
# Medium: in vitro
# Tested at: not given
# Notes: RNA with constant flanks, human-mouse chimeric sites, ends assumed
# Relative to: input RNA pool
# Reading: higher = stronger binding
# Shared flanks, not repeated: GGGAGUUCUACAGUCCGACGAUC … CAACAGAGGAUUGAGCAUCA
# Construct (chain): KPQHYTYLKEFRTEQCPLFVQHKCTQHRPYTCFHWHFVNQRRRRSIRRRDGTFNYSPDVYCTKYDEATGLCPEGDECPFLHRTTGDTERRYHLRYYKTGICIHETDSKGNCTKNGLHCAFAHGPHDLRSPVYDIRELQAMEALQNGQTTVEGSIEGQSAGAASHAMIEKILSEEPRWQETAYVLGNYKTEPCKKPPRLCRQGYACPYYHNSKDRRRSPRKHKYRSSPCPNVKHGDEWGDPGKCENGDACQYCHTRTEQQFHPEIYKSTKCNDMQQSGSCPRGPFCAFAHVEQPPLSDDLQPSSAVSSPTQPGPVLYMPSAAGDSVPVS
Sequence,bound/input enrichment
UGACAAGGGCACUGCAGAGCCAUGCCUUUCCUUGACAUCCAGAAAAGGCUGGGCAUCAGCCUGGACCGGCACUUUAUGUUCCUAAGCGCAGAACAGCCCUAUAAGAAGGCUGGUCGAUGC,0.0634 ratio
UCCUGGUCGUGUCCCAGUGCAGGACGAUGUGAACAAAAACUCAAAGCGGACCCUCUACUGUAGUUGAUGAUUCUCGAAAUGUGCUAUUAUUGUUUGUCUUUUUUUUUUUUUUUUUAAAGA,1.57 ratio
AACUUCGUGCAUCGGUUUCCUUUUGUAGCUGUUUCAAUUGGCUUUGCUGUGAAUAAAGAGAUGGAGUUUGGAAUUGUGUACAGCUGUGUGGAAGAUAAGAUGUACACCGGCAGGAAAGGG,0.535 ratio
CAGCCUCAGAGCCCAGACUUCCUGGAUAUUACCAACCCUAAAGCGGUAUUAGAAAAUGCACUUAGGAACUUCGCCUGUCUGACGACUGGAGAUGUGAUUGCUAUCAACUAUAAUGAAAAG,0.76 ratio
AUAGAUGAAAUUGAUGUAGAUCAGGAAGGAAUUGCUGAAAUGAUCCUGGAUGAAAAUGCUAUUGCUCAGGUCCCACGCCCUGGCACAUCUUUGAAGCUCCCUGGCACUAAUCAGACAGGA,0.562 ratio
CUGUGUGUGCUGAAUAAAUGGCUUGUAAAGAAGUUUUUCCAAGCUGUAACCCAUGCUGUUAUUAUAGUUGCUGCAAAAUGUCUCUUAUGAUAUUGAUGUUUGUUUACAACUGAAGGUCUC,0.116 ratio
AACAGAUUGUCUUUAAGCAUUCCAAGCGAGAAUGCUGGGGUGAUCAUAAUUACCCACGUGCCUUCUGUAAUAGAUGGAAUGCUGUUCCAUGUUACAUCUUUCCUUCACUCCAGAAUUGUU,0.111 ratio
AGAAUCUUGGGACUGUUUUACUUAAUUGGUCAUUGGUAGCUUAACAAACAUGGAGAUAAGAUUAGAAAUCUUGACAUCAACAGGUAUUAAGCAGAAAAAACCAUGGCCCAGAGUAUCCUG,0.104 ratio
UACUCAACUUUCUUGCCACAUUUUGAAUUCCAAGACAUUAUCCCUCCAGAUGACUUUCUAACGAGUGAUGAAGAGCAAGAUUUGGUUUUAUUUGGAACUAUGAGAGGACAAGUUGUUGGA,0.173 ratio
GUGACUGGUGUUAAGAUUUCCCCUCAGCAAAGAAGUGCAGUAGUCACCAUAAUUCCAUCUAUAGUGAGUGCCAGUCAGAUUGUGGAGCUGGUCCCAGACCUCAGUUUAGAUACUGGGACU,1.08 ratio
GUUGCCAGCUUCCGGUUCCGUUGGGCUAGCAAGCUCCAGUGCUACGUUGUCUCUACGCUCUCAAUCCGCCAUCCAACAAACAUGGAUCAGGUAAUGCAGUUUGUGGAGCCCAGCCGGCAG,0.136 ratio

# Series 5
# Target: Histone acetyltransferase KAT6A, winged helix 1, GST fusion (KAT6A, Homo sapiens, UniProt Q92794, residues 1-85)
# Method: protein binding microarray
# Molecule type: double-stranded DNA, one strand shown
# Medium: in vitro
# Tested at: not given
# Notes: 8-mer, flanks averaged, mean of 2 arrays, mostly near background
# Relative to: not given
# Reading: higher = stronger binding
# Target sequence (chain): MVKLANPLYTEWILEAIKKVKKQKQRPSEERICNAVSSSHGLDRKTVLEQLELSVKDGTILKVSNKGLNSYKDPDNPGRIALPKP
Sequence,E-score
CGGGGAAC,0.177
CCCCGGAC,0.1
AGCCGAAC,0.103
ACTCAAGA,-0.21
ACAAAAGC,-0.109
GTCCAAGA,-0.0174
CTTTCTAC,-0.0936
ACGATAAG,-0.0707
GGTTGCTA,-0.00562
CATCAGCG,0.255
GTCTACTA,-0.0654
AAATCCAG,-0.348
CTACGCAC,0.0285
CATTGAAC,-0.0502
AGCCTGCC,0.0406
TCATTACA,0.086
ACAGCCTC,-0.12
AAGTCTTA,-0.123
CGCGCCGC,0.456
AGGTAAGA,-0.139
ATGATTGA,-0.32
CTCCATAC,-0.0586
CACCAAGA,-0.184
ATACCATC,-0.0731
